Results from different studies.
Numbered parts are unrelated; each lists some results of a single study. Substitutions count along the parent as printed.

Study 1 — target: CCND3, cyclin fold, Cln2 fusion (human); method: yeast growth competition, sequencing; matrix: yeast; setting: weak parent motif; relative to: not given; direction: higher = stronger binding
Starting sequence: MASTL docking peptide (human); PMIAKNLMCELDE; partner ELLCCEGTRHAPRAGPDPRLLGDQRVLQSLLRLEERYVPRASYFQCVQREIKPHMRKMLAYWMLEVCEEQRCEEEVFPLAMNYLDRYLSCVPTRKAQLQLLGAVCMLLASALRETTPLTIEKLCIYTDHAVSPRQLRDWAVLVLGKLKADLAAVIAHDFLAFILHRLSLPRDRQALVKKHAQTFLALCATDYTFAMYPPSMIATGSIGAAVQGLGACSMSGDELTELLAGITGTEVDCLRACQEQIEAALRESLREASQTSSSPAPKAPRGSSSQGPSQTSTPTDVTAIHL
| Variant | normalised enrichment score |
| --- | --- |
| I3V | -0.2 |
| E10D | -0.169 |
| L11V | -0.0739 |
| K5P | -0.569 |
| E10K | 0.0345 |

Study 2 — method: protein-binding microarray; molecule type: double-stranded DNA, one strand shown; matrix: in vitro; concentration: 940 nM top; setting: 60-bp whole probe; added: salmon DNA 0.4 mg/ml; relative to: random background probes; direction: higher = stronger binding; shared flanks, not repeated: GCCTAGCAC … GTCTTGATTCGCTTGACGCTGCTG
Target: Interferon regulatory factor 5, full length, phosphomimetic (IRF5, Homo sapiens, UniProt Q13568-2, residues 1-514, S451D/S453D/S456D/S462D)
| Strand | fitted relative affinity |
| --- | --- |
| GACGACCTGGGGTTTCGAGACGTGCTA | 2 z-score |
| TCATTTTTGTAATCGAAAACTGTGCTA | 0.274 z-score |
| TTAGAACTGAGTGTCGATTAGTGCTAG | -0.327 z-score |
| TCACATATGCTTTTTAGACTGTGCTAG | 0.337 z-score |
| TTAGAACTGGGGTATCGATTTGTGCTA | 2.87 z-score |
| GACGTACTGGACACTGGGGACGTGCTA | -0.503 z-score |
| TTAGGTCTCGATCTCGGTTAGTGCTAG | 3.75 z-score |

Study 3 — method: protein binding microarray; molecule type: double-stranded DNA, one strand shown; matrix: in vitro; concentration: not given; relative to: not given; direction: higher = stronger binding
Target: Histone acetyltransferase KAT6A, winged helix 2, GST fusion (KAT6A, Homo sapiens, UniProt Q92794, residues 85-181)
Setting: 8-mer, flanks averaged, mean of 2 arrays, mostly near background
Residues (chain): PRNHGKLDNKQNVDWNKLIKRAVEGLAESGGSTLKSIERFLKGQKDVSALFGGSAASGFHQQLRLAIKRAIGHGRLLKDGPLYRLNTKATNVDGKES
| Strand | E-score |
| --- | --- |
| TCTATCAA | 0.0265 |
| CGAAAGCA | 0.168 |
| CAGGGCCA | -0.0539 |
| GATTACAA | 0.0478 |
| GGGCGCCA | 0.198 |
| CGTCTCTA | -0.0777 |
| GTAGTGGA | 0.00453 |

Mixed results
| Substance | target | test | system | setting | how to read | quantity | result |
| --- | --- | --- | --- | --- | --- | --- | --- |
| PhoQ, residues 284 288 289 292 302 303 AGHLVA | PhoP, residues 12 14 15 18 19 LHTVM (Escherichia coli, UniProt P23836) | Sort-seq, refers to: YFP reporter | E. coli | PhoQ-PhoP variant library, added: 10 µM Mg2+ | relative to: high Mg2+ state, higher = stronger signaling | fold induction | 13.2 |

Excerpt of the above (study 1):
| Variant | normalised enrichment score |
| --- | --- |
| E10K | 0.0345 |
| E10D | -0.169 |
